Measurements gathered from unrelated publications.
Every numbered part comes from another study and shows a few of its results, in no order. Positions count from the first letter of the parent shown.
Sequence of UniProt P28335 (whole entry, looked up): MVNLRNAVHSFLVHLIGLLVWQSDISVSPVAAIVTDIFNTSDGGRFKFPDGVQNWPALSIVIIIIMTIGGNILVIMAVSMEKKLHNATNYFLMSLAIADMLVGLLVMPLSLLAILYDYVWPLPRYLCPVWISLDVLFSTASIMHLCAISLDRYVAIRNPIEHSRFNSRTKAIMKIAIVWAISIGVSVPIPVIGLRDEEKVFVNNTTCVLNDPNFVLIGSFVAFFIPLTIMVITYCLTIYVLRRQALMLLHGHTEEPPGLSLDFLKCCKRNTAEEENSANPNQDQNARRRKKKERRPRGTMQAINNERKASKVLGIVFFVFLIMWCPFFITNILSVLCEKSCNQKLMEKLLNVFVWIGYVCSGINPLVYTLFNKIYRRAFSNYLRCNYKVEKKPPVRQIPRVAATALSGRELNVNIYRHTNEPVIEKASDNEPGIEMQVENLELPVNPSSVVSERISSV

Set 1 — target: inorganic phosphate, free oxyanion; method: microfluidic competitive inhibition; matrix: in vitro, cell-free expressed; tested at: not given; direction: lower = stronger binding
Notes: derived from inhibition constants, unchanged parent 615000 nM
Starting sequence: PafA, mature enzyme, eGFP fusion (Elizabethkingia meningoseptica, UniProt Q9KJX5); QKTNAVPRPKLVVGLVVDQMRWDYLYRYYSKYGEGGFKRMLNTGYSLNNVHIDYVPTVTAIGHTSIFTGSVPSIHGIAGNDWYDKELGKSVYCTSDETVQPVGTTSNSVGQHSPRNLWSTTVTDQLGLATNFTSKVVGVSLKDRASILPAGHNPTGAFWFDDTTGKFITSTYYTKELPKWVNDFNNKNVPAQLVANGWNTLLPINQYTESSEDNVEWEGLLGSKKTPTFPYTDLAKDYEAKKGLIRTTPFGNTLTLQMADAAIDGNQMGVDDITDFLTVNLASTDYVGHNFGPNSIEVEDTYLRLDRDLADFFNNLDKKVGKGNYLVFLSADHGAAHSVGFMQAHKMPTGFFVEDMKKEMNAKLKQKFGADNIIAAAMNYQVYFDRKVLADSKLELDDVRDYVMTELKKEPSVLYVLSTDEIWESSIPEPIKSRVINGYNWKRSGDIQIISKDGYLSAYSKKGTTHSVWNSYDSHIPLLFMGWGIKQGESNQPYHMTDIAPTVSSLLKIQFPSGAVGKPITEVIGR
Variant	phosphate dissociation constant [µM]
V139G	501
L309V	627
K486G	592
Q366V	627
D420G	540
R434G	525
Y207V	427
E218V	215

Set 2 — target: CCND1, cyclin fold, Cln2 fusion (human); method: yeast growth competition, sequencing; matrix: yeast; notes: weak parent motif; relative to: not given; direction: higher = stronger binding; starting sequence: viral docking peptide; PGASRRLFGSSAD
Variant	normalised enrichment score
PGASRALFGSSAD [R6A]	-0.349
PGASKRLFGSSAD [R5K]	-0.0137
PGASRRLFASSAD [G9A]	0.974
PGASRRAFGSSAD [L7A]	-0.399
PGASARLFGSSAD [R5A]	0.179
PGASRRLFGSSAA [D13A]	0.357
PGASRRLFGSAAD [S11A]	0.412
PGASKRLLGSSAD [R5K F8L]	-0.21

Other studies, line by line
SMILES	tested on	test	system	conditions	quantity	result
CCOC(=O)c1cc2cc(-c3cc(C(=O)NCc4ccc(C(=O)O)cc4)nn3C)ccc2[nH]1	HTR2C (Homo sapiens, UniProt P28335)	binding, radioligand binding		10 µM	inhibition	3.56%
O=C1CCC(N2Cc3c(ccc4c3OCC43CCN(Cc4ccccc4)CC3)C2=O)C(=O)N1 (stereo not drawn)			male Sprague Dawley rats, plasma	intravenous, 1 mg/kg, 6 h	plasma concentration	33.3 ng/mL

Repeated from above (set 1):
Variant	phosphate dissociation constant [µM]
Q366V	627
R434G	525
